Assay results collected from several papers.
B1: enzyme (Escherichia coli, UniProt P69937); chain MSWIILVIAGLLEVVWAVGLKYTHGFSRLTPSVITVTAMIVSMALLAWAMKSLPVGTAYAVWTGIGAVGAAITGIVLLGESANPMRLASLALIVLGIIGLKLSTH
B2: enzyme (Enterococcus faecalis, UniProt Q838J7); chain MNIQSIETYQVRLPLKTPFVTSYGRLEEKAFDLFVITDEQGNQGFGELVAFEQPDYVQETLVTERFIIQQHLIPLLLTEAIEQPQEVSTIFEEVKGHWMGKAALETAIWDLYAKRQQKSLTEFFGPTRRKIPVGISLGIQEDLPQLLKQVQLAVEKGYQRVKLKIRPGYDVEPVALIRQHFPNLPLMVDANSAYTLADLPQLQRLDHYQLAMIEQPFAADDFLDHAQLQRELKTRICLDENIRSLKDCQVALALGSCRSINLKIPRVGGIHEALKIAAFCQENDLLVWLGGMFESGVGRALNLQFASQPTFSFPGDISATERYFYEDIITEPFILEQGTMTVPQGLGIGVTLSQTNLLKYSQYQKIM
B3: enzyme A477T (Populus trichocarpa, UniProt A0A2K1ZZ60); chain ITRQYTFNITHKNFTRLCHTRSLVTVNGQFPGPRLVAREGDQVLVKVVNHVAENITIHWHGVRQLTSGWADGPAYVTQCPIQTGQAYTYNFTITGQRGTLLWHAHISWLRSSLYGPIIILPKLNESYPFKKPYKEIPILFGEWFNVDPEAVIAQALQTGAGPNVSDAYTINGLPGPLYNCSAKDTYKLKVKPGKTYLLRLINAALNDELFFSIANHTLTVVEADAVYVKPFEADTLLISPGQTTNVLLKTKPHLPNATFYMFAGPYFSGMGSFDNSTTAGVLVYKHPSSNNHLKKLPTLKPTLPPINATGFVANFTKKFRSLANAKFPANVPQTVDRKFFFTVGLGTNPCPKNTTCQGPNNNTKFAASINNVSFVLPSVALLQSYFFGQSNGVFTSDFPQNPTIPFNYTGTPPNNTMVSNGTKAVVLTFNTSVELVMQGTSIVTAESHPLHLHGFNFFVVGQGFGNYDPNKDPSNFNLVDPMERNTAGVPAGGWIAIRFLADNPGVWFMHCHLDVHTSWGLRMAWIVLDGPQPNQKIPPPPSDLPKC
Sequence of UniProt Q944I4 (whole entry, looked up): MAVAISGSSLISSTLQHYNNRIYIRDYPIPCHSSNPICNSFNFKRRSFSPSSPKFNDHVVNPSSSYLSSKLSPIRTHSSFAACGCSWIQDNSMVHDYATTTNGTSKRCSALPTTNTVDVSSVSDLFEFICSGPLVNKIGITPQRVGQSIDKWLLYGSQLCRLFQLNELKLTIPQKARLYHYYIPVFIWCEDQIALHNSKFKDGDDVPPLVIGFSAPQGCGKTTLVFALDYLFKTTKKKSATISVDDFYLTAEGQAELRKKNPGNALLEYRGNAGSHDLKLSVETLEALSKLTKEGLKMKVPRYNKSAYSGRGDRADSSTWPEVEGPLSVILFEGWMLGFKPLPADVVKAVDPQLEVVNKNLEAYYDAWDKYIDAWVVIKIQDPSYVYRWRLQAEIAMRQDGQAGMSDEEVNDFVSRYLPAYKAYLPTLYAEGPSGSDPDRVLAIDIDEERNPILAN
Sequence of UniProt Q9KGU7 (whole entry, looked up): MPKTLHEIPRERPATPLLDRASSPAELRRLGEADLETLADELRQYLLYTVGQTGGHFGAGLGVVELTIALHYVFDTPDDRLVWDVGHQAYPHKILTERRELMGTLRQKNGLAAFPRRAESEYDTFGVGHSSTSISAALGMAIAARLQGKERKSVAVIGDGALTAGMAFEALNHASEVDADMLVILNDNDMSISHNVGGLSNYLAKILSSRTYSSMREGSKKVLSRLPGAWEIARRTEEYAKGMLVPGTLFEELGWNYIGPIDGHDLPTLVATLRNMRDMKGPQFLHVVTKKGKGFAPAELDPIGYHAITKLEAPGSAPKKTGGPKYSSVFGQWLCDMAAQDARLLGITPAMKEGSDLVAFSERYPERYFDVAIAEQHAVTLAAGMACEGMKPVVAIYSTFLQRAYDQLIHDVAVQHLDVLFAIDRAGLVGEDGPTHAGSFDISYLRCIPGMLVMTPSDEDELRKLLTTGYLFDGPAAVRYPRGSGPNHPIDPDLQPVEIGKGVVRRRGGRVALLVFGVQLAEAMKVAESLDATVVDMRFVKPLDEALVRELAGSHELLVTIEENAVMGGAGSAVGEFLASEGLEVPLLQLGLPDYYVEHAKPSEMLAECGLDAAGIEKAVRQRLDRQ
Sequence of UniProt Q9ZPI1 (whole entry, looked up): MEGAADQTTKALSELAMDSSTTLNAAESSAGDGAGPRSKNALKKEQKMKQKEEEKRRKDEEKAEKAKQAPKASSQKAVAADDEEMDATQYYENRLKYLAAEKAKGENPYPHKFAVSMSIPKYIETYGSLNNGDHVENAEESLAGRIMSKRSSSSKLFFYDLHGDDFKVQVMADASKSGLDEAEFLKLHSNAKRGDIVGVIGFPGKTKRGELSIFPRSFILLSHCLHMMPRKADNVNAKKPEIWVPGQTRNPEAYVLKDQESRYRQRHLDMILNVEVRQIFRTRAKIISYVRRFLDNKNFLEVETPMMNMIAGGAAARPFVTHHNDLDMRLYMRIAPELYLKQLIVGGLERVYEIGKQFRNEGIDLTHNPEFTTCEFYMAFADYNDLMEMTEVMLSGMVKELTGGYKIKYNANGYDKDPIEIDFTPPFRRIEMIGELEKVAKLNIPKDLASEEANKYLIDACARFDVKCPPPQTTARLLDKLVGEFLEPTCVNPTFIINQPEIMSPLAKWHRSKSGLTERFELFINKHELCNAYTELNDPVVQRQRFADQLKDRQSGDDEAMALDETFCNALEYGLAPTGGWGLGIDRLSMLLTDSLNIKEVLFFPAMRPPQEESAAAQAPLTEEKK

enzyme (Arabidopsis thaliana, UniProt Q944I4) — Km (Nc1ncnc2c1ncn2[C@@H]1O[C@H](COP(=O)(O)OP(=O)(O)OP(=O)(O)O)[C@@H](O)[C@H]1O; steady-state kinetics; pH 7.8, 30 °C): 470 µM
rCR L137V/L34A (Lodderomyces parapsilosis) — Km (CC(=O)c1ccccc1; steady-state kinetics; pH 7, 30 °C, with: NADH 0.5 mM): 790 µM
dxs (Pseudomonas aeruginosa, UniProt Q9KGU7) — Km (O=C[C@H](O)COP(=O)(O)O; steady-state kinetics; pH 8, 25 °C, apparent): 5.8 µM
B1 (enzyme) — Km (N=C(N)NC(N)=O; steady-state kinetics; pH 7.5): 850 µM
B2 (enzyme) — Km (O=C(O)CCC(=O)C1=CC=C[C@@H](O)[C@@H]1C(=O)O; steady-state kinetics; pH 8, 25 °C): 21 µM
ALS1 M174L/P171T/R172G (Oryza sativa) — Km (CC(=O)C(=O)O; steady-state kinetics; pH 7.5, 37 °C, with: FAD, MgCl2, TPP): 18000 µM
B3 (enzyme A477T) — Km (COc1cc(/C=C/CO)cc(OC)c1O; steady-state kinetics; 27 °C): 135 µM
insulin human — fold change (measured: NRGN mRNA; EcoHIV-infected mouse, brain; i.p., dose not given; relative to: PBS): 1.02
enzyme (Arabidopsis thaliana, UniProt Q9ZPI1) — Km (Nc1ncnc2c1ncn2[C@@H]1O[C@H](COP(=O)(O)OP(=O)(O)OP(=O)(O)O)[C@@H](O)[C@H]1O; steady-state kinetics; pH 7.8, 37 °C): 76.8 µM
nfsB K14Q (Escherichia coli) — Km (NC(=O)N/N=C/c1ccc([N+](=O)[O-])o1; steady-state kinetics; pH 7, 37 °C): 13 µM
